Measurements pooled from the literature.
Several values in a cell are separate wells, animals, samples, runs or records.
Target: Serine/threonine-protein kinase/endoribonuclease IRE1 (ERN1, Homo sapiens, UniProt O75460)

C=CC(=O)Nc1cc(-c2nn(C3CCN(CCNC(=O)[C@H](C)CCC45CC6CC(CC(C6)C4)C5)CC3)c3ncnc(N)c23)ccc1Oc1ccccc1 — inhibition (inhibitor, KiNativ profiling; biochemical; 2 µM): -4.8%
CCN1CCN(Cc2ccc(C(=O)Nc3ccc(C)c(NCc4cnc5[nH]ccc5c4OC)c3)cc2C(F)(F)F)CC1 — remaining binding (binding, competition with immobilised ligand; 1 µM): 12%
CCn1cc(C(=O)O)c(=O)c2c(N)c(F)c(NC3CCCCC3)cc21 — inhibition (kinase activity; 0.1 µM, with: ATP at Km): 10.2%
CN1CCN(Cc2ccc(-c3ccc(CO[C@H]4CCC[C@@H]4NC(=O)c4cc(-c5cnn(C)c5)cnc4N)cc3)cc2)CC1 — inhibition (enzyme activity, inhibitor; 0.1 µM): 6%
O=C(Cc1ccc(OCc2ccccc2)cc1)NC1(C(=O)O)CCN(C(=O)c2ccc(-c3cccc(Cl)c3)cc2)CC1 — activity vs control (enzyme activity, inhibitor; 10 µM): 101%
Nc1ncc2c(n1)-c1c([nH]c3ccc(C4=CCOCC4)cc13)CCC2 — remaining binding (binding, competition with immobilised ligand; 1 µM): 63%
CNC(=O)C1CCN(c2cc(C)c(F)cc2NC(=O)c2ccc(-c3cc(O)ccc3C)c(C)c2)CC1 — remaining binding (binding, competition with immobilised ligand; 1 µM): 98%
Cc1cnc2nc1Nc1cccc(c1)COC/C=C/COCc1cc(ccc1OCCN1CCOCC1)N2 — remaining binding (binding; 0.1 µM): 83%
C=CC(=O)N1CCc2ccc(-n3c(=O)ccc4cnc5ccc(-c6cnn(C)c6)cc5c43)cc21 — remaining binding (KINOMEscan; 1 µM; relative to: DMSO control): 94%
CNC1C[S+]2CC[S+]3CC[S+](C1)[Ru-4]321([N]=C=S)[n]2c3ccc(OC)cc3c3c4c(c5cc(F)c[n+]1c5c32)C(=O)NC4=O (centres unmarked) — remaining binding (KinomeScan; 0.1 µM; relative to: untreated): 100%
CS(=O)(=O)Nc1cccc(-c2csc3cnc(Nc4ccc(N5CCN(CCCCCOc6cccc7c6C(=O)N(C6CCC(=O)NC6=O)C7=O)CC5)cc4)nc23)c1 (centres unmarked) — inhibition (probe labelling, inhibitor, KiNativ chemoproteomics; MOLT-4; 1 µM): -26.5%
Nc1ncc(-c2cc(-c3cnn(CC(F)(F)F)c3)ncc2F)nc1C(=O)NC1CNCC(F)C1 (centres unmarked) — remaining activity (enzyme activity; 1 µM; relative to: DMSO control): 35.8%
COc1cc(Nc2nc(C)cc(-c3cnn4nc(OC)ccc34)n2)cc(C(F)(F)F)c1 — remaining activity (inhibitor; 1 µM; relative to: control): 100%
CNC(=O)C[C@H](Cc1ccc(C#N)cc1)NC(=O)c1cc(-c2ccc(CN[C@H](C)c3ccc(C)cc3)o2)ccc1Cl — activity vs control (enzyme activity, inhibitor; 1 µM): 95%
COc1c(Cl)cccc1Nc1c(-c2ccncc2C#C[C@@]2(C)CCCN2C(=O)/C=C/CN(C)C)[nH]c2c1C(=O)NCC2 — remaining binding (cell-free assay, competition with immobilised ligand; 3 µM): 55%
C=CC(=O)N1Cc2nc(-c3cc(-c4cc(Cl)cnc4Cl)c(F)cc3F)n(-c3ccncn3)c2C1 — inhibition (cell-free assay, inhibitor; 1 µM): 3.6%
CC(C)=CC1OC(C)(C)C2C=C3C(=O)C(Cl)=CC(O)C3C3C(O)C4OC4C(=O)C132 (centres unmarked) — remaining binding (cell-free assay, competition with immobilised ligand; 10 µM): 84%
COc1cc(Nc2nccc(-c3cnn4nc(OC)ccc34)n2)cc(C(F)(F)F)c1 — remaining binding (binding, competition with immobilised ligand; 1 µM): 74%
N[C@H]1CC[C@H](Nc2nccc(-c3cccnc3Oc3ccc(NC(=O)NC4CC4)c4ccccc34)n2)CC1 — log2 LFQ intensity (kinobead competition pulldown; HEK293/HCT116 lysate mixture; 10 µM, 1 h, 4 °C; lower = stronger competition): 23.3 and 24.7 and 21.8 and 23.2
Cc1ccc(-c2c(/C=C(\C#N)C(=O)NC(C)C)n(CCCO)c3ncnc(N)c23)cc1 — remaining binding (cell-free assay, competition with immobilised ligand; 1 µM): 100%
Cc1nc2c(F)cc(-c3nc(Nc4ccc(CNC(=O)CCCCCCC(=O)NO)cc4)ncc3F)cc2n1C(C)C — inhibition (enzyme activity, inhibitor; 1 µM): 57%
C=CC(=O)N1CCCC(n2c(=O)c3ncccc3n(Cc3ccc(Oc4ccccc4)cc3)c2=O)C1 (centres unmarked) — remaining binding (cell-free assay, competition with immobilised ligand; 1 µM): 90%
CN1CC[C@@H](COc2cnc(C#N)cc2-c2ccn3nc(NC(=O)C4CC4)cc3c2)C1 — inhibition (enzyme activity, inhibitor; 1 µM): 3%

For quick reference, copied from above:
CC(C)=CC1OC(C)(C)C2C=C3C(=O)C(Cl)=CC(O)C3C3C(O)C4OC4C(=O)C132 (centres unmarked) — remaining binding (cell-free assay, competition with immobilised ligand; 10 µM): 84%
COc1cc(Nc2nccc(-c3cnn4nc(OC)ccc34)n2)cc(C(F)(F)F)c1 — remaining binding (binding, competition with immobilised ligand; 1 µM): 74%
N[C@H]1CC[C@H](Nc2nccc(-c3cccnc3Oc3ccc(NC(=O)NC4CC4)c4ccccc34)n2)CC1 — log2 LFQ intensity (kinobead competition pulldown; HEK293/HCT116 lysate mixture; 10 µM, 1 h, 4 °C; lower = stronger competition): 23.3 and 24.7 and 21.8 and 23.2
